Experimental data from different studies.
Protocols differ between the studies behind these lines.
Organism: Staphylococcus epidermidis

SMILES	read-out	method	strain	time	temperature	notes	MIC
Oc1c(Br)cc(Br)c2nc3c(C(F)(F)F)cc(C(F)(F)F)cc3nc12	microbial growth	broth dilution	12228	–	–	–	0.15 µM
CCCCN(CCCC)CC(O)COc1c2ccoc2c(OC)c2oc(CC)cc(=O)c12 (stereo not shown)	–	broth microdilution	ATCC 12228	19 h	35 °C	–	> 256 µg/mL
Oc1c(Br)cc(Br)c2nc3cc(SC(F)(F)F)ccc3nc12	microbial growth	broth dilution	12228	–	–	–	0.1 µM
C[C@H]1COc2c(N3CCN(C)CC3)c(F)cc3c(=O)c(C(=O)N[C@@H](CCCNC(=N)N)C(=O)N[C@@H](Cc4ccc(-c5ccccc5)cc4)C(=O)N[C@@H](CCCNC(=N)N)C(=O)N[C@@H](Cc4ccc(-c5ccccc5)cc4)C(=O)N[C@@H](CCCNC(=N)N)C(N)=O)cn1c23	–	broth microdilution	ATCC 700565	–	–	–	10 µM
C[n+]1ccc(/C=C2\Sc3ccccc3N2CCCN2CCCC2)c2ccccc21	microbial growth	broth dilution	ATCC12228	–	–	–	4 µg/mL
Oc1c(Br)cc(Br)c2nc3cc(Cc4ccccc4)ccc3nc12	–	broth microdilution	MRSE 35984	–	–	–	0.15 µM
CC1=C[C@@H](C)[C@H]2[C@@H]3C(=O)C(Cl)(Cl)C(=O)[C@H](C)C(=O)O[C@@H](C)/C=C/C=C\[C@@H](C)[C@@H]3C=C[C@@H]2C1	microbial growth	broth dilution	–	–	–	–	0.05 µg/mL
N#Cc1ccc2cccc(O)c2n1	microbial growth	agar dilution	ATCC12228	–	–	–	1500 µM
Oc1c(Br)cc(Br)c2nc3cc(I)ccc3nc12	–	broth microdilution	MRSE 35984	–	–	single representative determination	0.1 µM
CCN(CC)CCCN1/C(=C/c2cc(C)[n+](C)c3ccccc23)Sc2ccccc21	microbial growth	broth dilution	ATCC12228	–	–	–	1 µg/mL
O=C(O)c1ccc(-n2cc(/C=N/Nc3cccc(Cl)c3F)c(-c3ccc4ccccc4c3)n2)cc1	–	broth microdilution with resazurin	700296	–	–	–	1.56 µg/mL
Oc1c(Br)cc(Br)c2nc3cc(Cl)ccc3nc12	–	broth microdilution	MRSE 35984	–	–	single representative determination	0.1 µM
CCCCCCSCC1OC(OC2C(N)CC(N)C(OC3OC(CN)C(O)CC3N)C2O)C(O)C(N)C1O (stereo not shown)	–	–	–	–	–	–	75 µg/mL
Oc1c(Cl)cc(Cl)c2cccnc12	microbial growth	agar dilution	ATCC12228	–	–	–	37.4 µM
CCCCCCCCCCCCCCCCCCCCCCSCC1OC(OC2C(N)CC(N)C(OC3OC(CN)C(O)CC3N)C2O)C(O)C(N)C1O (stereo not shown)	–	–	–	–	–	–	75 µg/mL
CCN(CC)CCCN1/C(=C/c2cc[n+](C)c3ccccc23)Sc2ccccc21	microbial growth	broth dilution	ATCC12228	–	–	–	1 µg/mL

A few entries again:
SMILES	read-out	method	strain	time	temperature	notes	MIC
O=C(O)c1ccc(-n2cc(/C=N/Nc3cccc(Cl)c3F)c(-c3ccc4ccccc4c3)n2)cc1	–	broth microdilution with resazurin	700296	–	–	–	1.56 µg/mL
Oc1c(Br)cc(Br)c2nc3c(C(F)(F)F)cc(C(F)(F)F)cc3nc12	microbial growth	broth dilution	12228	–	–	–	0.15 µM
Oc1c(Br)cc(Br)c2nc3cc(I)ccc3nc12	–	broth microdilution	MRSE 35984	–	–	single representative determination	0.1 µM
